Assay results pooled from the literature.
Every numbered part comes from another study and shows a few of its results, in no order.

Block 1
Target: PABPC1L2, full length, GST fusion (mouse, UniProt A0ABA7IW68)
Technique: RNAcompete
Form: RNA
Matrix: in vitro
Tested at: 20 nM
Notes: 7-mer, probes averaged, single round
Baseline: mean of 7-mers
Direction: higher = stronger binding
Target sequence (chain): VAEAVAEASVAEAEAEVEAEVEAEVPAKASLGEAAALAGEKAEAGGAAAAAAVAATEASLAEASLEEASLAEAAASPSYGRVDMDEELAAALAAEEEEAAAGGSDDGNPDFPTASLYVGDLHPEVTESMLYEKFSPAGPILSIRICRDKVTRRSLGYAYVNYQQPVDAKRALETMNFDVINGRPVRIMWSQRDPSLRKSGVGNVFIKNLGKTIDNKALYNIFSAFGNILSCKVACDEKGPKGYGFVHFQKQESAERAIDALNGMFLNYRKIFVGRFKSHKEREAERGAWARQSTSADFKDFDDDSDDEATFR
Oligonucleotide | 7-mer Z-score
AGUACCA | -0.00833
UGCAGGG | 0.108
AACCUGC | -0.00833
UUCAGGA | -0.0627
GCAAAGA | 0.608
CAGGGCU | 0.0986
AAGGUUC | -0.13
AAUGUUC | -0.213
AUCAUAA | 0.454
UCCCAUU | -0.336
UCGUUGC | -0.358
CAUCAUA | -0.0609
UACUCCA | -0.121
UCUCUCG | -0.349
UGUCGUC | -0.518
GGGUUAU | 0.104
CUAGCAG | -0.275
GAUACCC | -0.349
GUGCCUC | -0.193
AUGCAUG | -0.141
ACUCUAA | 0.095
CGCGUAG | -0.238
GGUAGAG | 0.0587

Block 2
Target: Interferon regulatory factor 7, full length, phosphomimetic (IRF7, Homo sapiens, UniProt Q92985, residues 1-503, S101K/S471D/S472D/S475D/S476D/S477D/S483D/S484D/S487D)
Chain of UniProt Q92985 (whole entry, unmodified, looked up): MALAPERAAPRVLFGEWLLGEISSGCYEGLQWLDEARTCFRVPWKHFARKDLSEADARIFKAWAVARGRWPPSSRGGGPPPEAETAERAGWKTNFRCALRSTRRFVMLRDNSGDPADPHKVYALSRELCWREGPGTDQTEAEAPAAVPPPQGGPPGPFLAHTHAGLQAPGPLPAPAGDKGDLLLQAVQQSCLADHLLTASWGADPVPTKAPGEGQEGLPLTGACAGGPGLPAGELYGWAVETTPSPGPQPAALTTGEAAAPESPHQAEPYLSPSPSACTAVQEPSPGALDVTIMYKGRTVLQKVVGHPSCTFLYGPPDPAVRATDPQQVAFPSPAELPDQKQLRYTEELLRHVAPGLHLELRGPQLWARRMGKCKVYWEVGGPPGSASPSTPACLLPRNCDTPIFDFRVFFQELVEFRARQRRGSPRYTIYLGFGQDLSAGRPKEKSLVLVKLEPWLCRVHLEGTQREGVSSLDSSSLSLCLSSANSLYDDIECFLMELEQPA
Technique: protein-binding microarray
Form: double-stranded DNA, one strand shown
Matrix: in vitro
Tested at: 250 nM
Notes: 60-bp whole probe
Added: salmon DNA 0.4 mg/ml
Baseline: random background probes
Direction: higher = stronger binding
Constant ends, left off below: GCCTAGCAC … GTCTTGATTCGCTTGACGCTGCTG
Oligonucleotide | log fluorescence
GGAAATTCTCATTTCCAATTGTGCTAG | 1.04 z-score
TCATTTTTTTTTTTTCTACTGTGCTAG | 1.07 z-score
GACGGTATCGGGATTGGGGACGTGCTA | 0.228 z-score
TTAGATATCGTGTTTCGATTAGTGCTA | 2.92 z-score
TCATTCCTCTTTCTCTGACTGTGCTAG | 2.84 z-score
GACGATTTAAGTTCCGAGACGTGCTAG | 0.454 z-score
TTAGGGCTCGGTTTCGGTTAGTGCTAG | 10.6 z-score
GACGATTTCAGATTCGAGACGTGCTAG | 1.43 z-score
TTAGGTTTACTTCTCCTTTAGTGCTAG | 0.705 z-score
TCAAGTAGCTTTCTGAGACTGTGCTAG | -0.554 z-score
TCACTACTGTATTTGGCACTGTGCTAG | -0.159 z-score
TTAGGACTGGGTACCGGTTAGTGCTAG | 0.205 z-score
TTAGATCTCATTATCGATTAGTGCTAG | 0.72 z-score
TTAGATCTCAGTATCGAATAGTGCTAG | 0.191 z-score
TTAGGTATCGACACGGGGTTAGTGCTA | -0.152 z-score
TTAGGTTTCCTACTTCTTTAGTGCTAG | 1.69 z-score
GACGACCTGGGGTATCGAGACGTGCTA | -0.42 z-score
TTAGGAGTGCTTATCCTTTAGTGCTAG | -1.09 z-score
TCATTTCTCTTATTCTAACTGTGCTAG | 2.54 z-score

Block 3
Target: Hepatocyte nuclear factor 3-alpha (Foxa1, Mus musculus, UniProt P35582, residues 1-468, full length assumed)
Technique: EMSA with sequencing
Form: double-stranded DNA, one strand shown
Matrix: in vitro
Tested at: 10 and 20 nM
Notes: whole designed probe, mean of two concentrations, ends assumed
Baseline: negative control set to 0
Direction: higher = stronger binding
Constant ends, left off below: GTGAGCGGTGCCCATTGATGGGGAAC … TTTCACTGGGATCGTGGGGAC
Residues (chain): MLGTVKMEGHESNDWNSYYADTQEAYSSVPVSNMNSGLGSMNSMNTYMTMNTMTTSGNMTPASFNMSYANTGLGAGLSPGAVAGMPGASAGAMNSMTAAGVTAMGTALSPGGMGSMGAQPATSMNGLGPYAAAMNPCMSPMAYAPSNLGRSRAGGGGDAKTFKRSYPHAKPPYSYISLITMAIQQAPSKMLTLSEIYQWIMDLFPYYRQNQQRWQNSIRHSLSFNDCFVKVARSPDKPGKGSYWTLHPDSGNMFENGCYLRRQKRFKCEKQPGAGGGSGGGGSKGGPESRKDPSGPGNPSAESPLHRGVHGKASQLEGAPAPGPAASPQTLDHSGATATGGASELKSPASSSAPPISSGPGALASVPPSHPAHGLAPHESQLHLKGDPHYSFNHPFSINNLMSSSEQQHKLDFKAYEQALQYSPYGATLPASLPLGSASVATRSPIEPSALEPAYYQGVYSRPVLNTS
Oligonucleotide | normalised bound fraction [ratio]
GGGAATTTTTATATAATACCAACTAATGAGTGTAAAACAAAGAAACAAAAAGAAACCAGTCCACAGAAACCAGAGTTGAGGCATGTGACTCAGTGTTGACTCTCAAGGTGATTACCCTGTGAAACTATGTACTGTTCTTGCATAACAATTTTTGGAATCTTTTGCTTTGAAATGCCTTCAGAATCAGTTCATG | 0.0643
AATGAGCTAAGATTCCAACTTAAAAAATGTAAGAATAAACCTGGTGTATCATTCCCAAAGAAAAAGAGCAGTTTAGAAATAATAAGAGCACAATATTGACATAGAAAAGAAAGACACAGTAGAGAAGATCAACAAAACCAAGAACTGGTTCATAGAAAAATAGCAATAAAATAGACTTCAGGCAAAATTATCC | 0.301
AAAGAGAAAAATAAATATCATCATGGACTTTAATGTGCACAGAAAATAAAATGTTCAATAAAAAATATTAATTATTTCTAGTTTCATGCTTTCTAGATTACACAGGTAATATATTTCAAAATATTTAAATTACCTTTAAAATGAAAATACTAAAAAATGTATGAGAAAAGAATAGAGTAAAGTCAAGATGCTT | 0.206
GGAGTTATCAGGAGACATTTTATGGTGAACATGGATATAAGTTTGTTCCTGAAGGATGCAGGGAATTCAGTAACACAGAAAAACAGTTCAAAGTAATCTTGAACAAAACTCCAGAGATGGGTACACAGATGTGTAAAGATGGAGTTAGGTGGGCTACATGTAGATGATGAAGCCCACATATGTCACCAAAGCA | -0.0115
AGGTGAATTGGCTGCTTCCATCCTGGCTTGGAACTTCAGACATAGAAGCCTTGGGACTTTCTCAGGACTTTCTCCAGATCTGTCACATGCTCAGCAAACAAGCATCTCTGTGGATCACGTCTGACTCATGCGGGATGTTGGTGAAACTGTGTGTTGGTCTAGGTACCTAGCCCATGCTAGGTGCTCATCGAAT | 0.114

Block 4
Target: Histone acetyltransferase KAT6A, winged helix 1, GST fusion (KAT6A, Homo sapiens, UniProt Q92794, residues 1-85)
Technique: protein binding microarray
Form: double-stranded DNA, one strand shown
Matrix: in vitro
Tested at: not given
Notes: 8-mer, flanks averaged, mean of 2 arrays, mostly near background
Baseline: not given
Direction: higher = stronger binding
Construct (chain): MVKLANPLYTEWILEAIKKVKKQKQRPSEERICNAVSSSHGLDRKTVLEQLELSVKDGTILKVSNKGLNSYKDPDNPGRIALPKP
Oligonucleotide | E-score
AACTTAGA | -0.278
TCCTCTCA | -0.306
GATTTCGC | 0.0734
GACATGTA | -0.0178
CAAATACG | -0.0638
AGAGAATC | -0.114
CGATTATC | 0.0692
AGCACCAG | -0.252
ACAGAGAG | -0.2
AGCCCAAC | -0.187
CTCGTGAC | -0.188
ATATGCTG | -0.138
ACCTTCGC | 0.181
GGATGACA | -0.0214
AAGTTCGC | -0.0564
CCTACAAA | -0.0724
CCAGCGCC | 0.294
CTGCGACA | 0.153

Block 5
Target: RING finger protein unkempt homolog, zinc fingers 1-6, GST-SBP tag (UNK, Homo sapiens, UniProt Q9C0B0, residues 30-357)
Chain of UniProt Q9C0B0 (30-357, looked up): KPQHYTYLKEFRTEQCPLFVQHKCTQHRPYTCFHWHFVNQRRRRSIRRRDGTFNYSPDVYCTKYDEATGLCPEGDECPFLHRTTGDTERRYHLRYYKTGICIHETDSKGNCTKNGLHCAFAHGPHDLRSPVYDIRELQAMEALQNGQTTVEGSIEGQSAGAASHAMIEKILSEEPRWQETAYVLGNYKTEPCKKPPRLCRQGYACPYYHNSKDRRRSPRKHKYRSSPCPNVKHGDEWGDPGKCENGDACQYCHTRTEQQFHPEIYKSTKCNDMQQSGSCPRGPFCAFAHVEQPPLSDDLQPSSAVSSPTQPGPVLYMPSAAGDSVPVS
Technique: RNA Bind-n-Seq
Form: RNA
Matrix: in vitro
Tested at: not given
Notes: RNA with constant flanks, human and mouse sites, ends assumed
Baseline: input RNA pool
Direction: higher = stronger binding
Constant ends, left off below: GGGAGUUCUACAGUCCGACGAUC … CAACAGAGGAUUGAGCAUCA
Oligonucleotide | bound/input enrichment [ratio]
CGUUCUGCUAACACUAUCAAUUAUGCAUCGUGUUGAACGAAGCUUCGGGGAGGGGGAGGCUAGCAGGCGGCAGGAGGAAAAGGGUCCGGGAGAGCCAGGCAGCGCAGUUCAGCAGGUCCC | 0.286
GAAUUACAGAAAAAGCAGGACCGACAGAACCACCAAGUAAAACCUGAAAAAAGGUUACUAAGUGAUGGACAACAGCACCUUACGGAAAGCCUGAGAGAAAAGUGCUCUAGAAUAAAAGAG | 0.253
GUAUUGAUAACAGAACAUGGCGACUUGGGAAAUGGAAAGUUUUUGGAUCCAAAGAACAGAAUCUGUUUUAAAUUUGAUCACUUAAGGAAGGAGGCAACUGAUCCAAGACCCUGUGAAGUA | 0.247
UUAUCCAAGACUCAACGAAAGACUCCAACGGUUAUUCAUAAACAUUAUCAAAUUCAUCGGAUUCGACAUUUUUAUAUGAGAAAAGUCAAAUUUACUCAACAGAAUUACCAUGACAGACUG | 0.149
CUGAGAUUAUAUGAAGCAGUUAUUGAUGCUAAGAAACUUUUAUCUGAGCUUUCUAACCCUGAAAUUUCUAAAUAUGUUGGUGAAGUCUUUAACAUCGUCAGUCAACAAUCAACAGCCAGG | 0.319
GAAGAAGCCCAUAAACUACCAGUAAAACACUUUACUAAUCCAUAUUGUAACAUCUACUUGAAUAGCGUCCAAGUAGCAAAAACUCAUGCAAGGGAGGGGCAAAACCCAGUAUGGUCAGAG | 0.357
ACCACAAGUGCCACCACCUACCCCACCCCCGGUGGCCGCUGUUCCUCCAACUCCCCAGCCUUUAGCUCCUACACCUUCAGCACCCUGCCCAGCUACUCCUGCUGGACCAAAGGGAAGGGU | 0.274
UCUUCAUUGAGUUUGUCAAUAGGACAUUGAUGCUGGAUAGGUUGUCUUUUGUUUUUAUGUCUCAGACCAUCUUGUGAGAUUGUUUGCCUAUCUCAUAAUACAGUUUUAUGCAGAAAGGUU | 0.42

A few entries again (block 1):
Oligonucleotide | 7-mer Z-score
UUCAGGA | -0.0627
UACUCCA | -0.121
AAGGUUC | -0.13
GUGCCUC | -0.193
